Results collected from several papers.
Lines come from different studies, so protocols differ. Several values in a cell are separate wells, animals, samples, runs or records. Numbers after ± are the reported error.

SMILES	assay	test system	conditions	Cmax
CCc1nc(C(N)=O)c(Nc2ccc(N3CCC(N4CCN(C)CC4)CC3)c(OC)c2)nc1NC1CCOCC1		female FVB mice, MATE1 knockout, plasma	oral, 10 mg/kg, single dose	485 ± 48 ng/mL
CC1(C)CC[C@]2(C(=O)O)CC[C@]3(C)C(=CC[C@@H]4[C@@]5(C)C[C@@H](O)[C@H](OC(=O)/C=C/c6ccc(O)cc6)C(C)(C)[C@@H]5CC[C@]43C)[C@@H]2C1 (relative stereo)		C57BL/6 mice, plasma	intraperitoneal, 85 µmol/kg single dose	79600 nM
Cc1c(C(=O)O)ccc2c3n(nc12)[C@@H]1[C@H](C3)N(CC2CC2)[C@@]2(C(=O)Nc3cc(Cl)ccc32)[C@H]1c1cccc(Cl)c1F		female BALB/c nude mice, SJSA-1 xenograft, plasma	oral, 2 mg/kg once daily	2420 nM and 2450 nM and 2050 nM and 2230 nM and 1910 nM
COc1cc([C@@H]2Oc3ccc([C@H]4Oc5cc(O)cc(O)c5C(=O)[C@@H]4O)cc3O[C@H]2CO)ccc1O		FVB wild-type mice, plasma	oral gavage, 500 mg/kg silymarin	200 nM
CCNc1nc2c(c(N3CC(=O)Nc4cc(OC)ccc43)n1)CCC2		C57BL/6 mice, female, plasma	intravenous, 4 mg/kg	1560 ng/mL
CO[C@H]1C[C@@H]2CC[C@@H](C)[C@@](O)(O2)C(=O)C(=O)N2CCCC[C@H]2C(=O)O[C@H]([C@H](C)C[C@@H]2CC[C@@H](OC(=O)NCCOCCOCCOCCOCCOCCOCCOCCOCCC(=O)N3CCc4cc(Cn5nc(-c6ccc7oc(N)nc7c6)c6c(N)ncnc65)ccc4C3)[C@H](OC)C2)C[C@@H](O)[C@H](C)/C=C(\C)[C@@H](O)[C@@H](OC)C(=O)[C@H](C)C[C@H](C)/C=C/C=C/C=C/1C		tumour-bearing xenograft mice, plasma	intraperitoneal, 1 mg/kg, weekly dosing	1990 nM
O=[N+]([O-])c1ccc(-c2ccc(O)cc2)c2cccnc12		ICR mice male, plasma	oral, 5 mg/kg	65.9 ng/mL
Cc1cc(C)c(CNC(=O)c2cc(Cl)c3c(c2C)O[C@@](C)([C@H]2CC[C@H](N(C)C)CC2)O3)c(=O)[nH]1		female CB17 SCID mice, HT-1376 xenograft, plasma	75 mg/kg, day 1	3090 ng/mL
Cn1c(C(F)(F)F)cc(=O)n(-c2cc(Oc3cccnc3OCC(=O)O)c(Cl)cc2F)c1=O		Crl:CD1(ICR) mice, male, plasma	oral diet, 25 ppm in diet, day 1, 90-day toxicity study	147 ng/mL
Cc1cc2sc(N)nc2c2cccnc12		female BALB/c mice, plasma	intraperitoneal, 30 mg/kg	6300 ng/mL
C[C@H]1[C@@H](O)O[C@@H]2O[C@@]3(C)CC[C@H]4[C@H](C)CC[C@@H]1[C@@]24OO3		female NSG mice, plasma	oral, 120 mg/kg artesunate	3960 ng/mL
CNC(=O)c1cc(Oc2ccc(NC(=O)Nc3ccc(Cl)c(C(F)(F)F)c3)c(F)c2)ccn1		male DBA/1lacJ Oatp1b2 knockout mice, plasma	oral, 10 mg/kg single dose	3640 ± 172 ng/mL
Nc1ncc(-c2ccncc2)nc1Nc1ccc2[nH]ccc2c1		C57BL mice, male, plasma	subcutaneous, 10 mg/kg	5100 nM
CNC(=O)c1cc(Oc2ccc(NC(=O)Nc3ccc(Cl)c(C(F)(F)F)c3)c(F)c2)cc[n+]1[O-]		Oatp1b2 knockout mice, plasma	oral, 10 mg/kg regorafenib	405 ± 20.6 ng/mL
COc1cc([C@@H]2Oc3cc([C@H]4Oc5cc(O)cc(O)c5C(=O)[C@@H]4O)ccc3O[C@H]2CO)ccc1O		FVB wild-type mice, plasma	oral gavage, 500 mg/kg silymarin	590 nM
CC1CCNc2c(C(=O)NC/C=C/S(C)(=O)=O)cccc21 (centres unmarked)		male C57BL/6 mice, plasma	oral, 10 mg/kg	405 nM
CCN1CCN(Cc2ccc(NC(=O)c3ccc(C)c(NC(=O)c4cncc(-c5cccs5)c4)c3)cc2C(F)(F)F)CC1		C57BL/6 mice, epithelial lining fluid	intraperitoneal, 20 mg/kg	1860 ng/mL
Nc1ncn([C@H]2C[C@H](O)[C@@H](CO)O2)c(=O)n1	UHPLC-MS/MS	C57BL/6 mice, female, plasma	oral, 0.4 mg/kg	142 ng/mL
COc1cc([C@@H]2[C@H]3CO[C@@]4(O)C(=O)[C@@H]2C=C([C@H]2Oc5cc(O)cc(O)c5C(=O)[C@@H]2O)[C@@H]34)ccc1O		FVB wild-type mice, plasma	oral gavage, 500 mg/kg silymarin	50 nM
Cc1ncccc1-c1cnc(NCc2c(F)ccc3c2CCO3)n2cnnc12		female CB17 SCID mice, HT-1376 xenograft, plasma	75 mg/kg, day 1	5660 ng/mL
COc1ccc2cc(CCC[18F])ccc2c1		Balb/c mice, male, plasma	intravenous, dose not given	12.6 ± 6.4 %ID/mL
CNC(=O)c1cc(Oc2ccc(NC(=O)Nc3ccc(Cl)c(C(F)(F)F)c3)cc2)ccn1		female Oatp1b2(-/-) mice, DBA1/lacJ, plasma	oral, 10 mg/kg, no rifampin, geometric mean	4880 ng/mL
CN1CCC[C@H](CN2c3ccccc3Sc3ccccc32)C1.Cl		fasted female ICR mice, plasma	oral, 16 mg/kg single dose	339 ng/mL

Excerpt of the above:
SMILES	assay	test system	conditions	Cmax
O=[N+]([O-])c1ccc(-c2ccc(O)cc2)c2cccnc12		ICR mice male, plasma	oral, 5 mg/kg	65.9 ng/mL
Cc1ncccc1-c1cnc(NCc2c(F)ccc3c2CCO3)n2cnnc12		female CB17 SCID mice, HT-1376 xenograft, plasma	75 mg/kg, day 1	5660 ng/mL
CNC(=O)c1cc(Oc2ccc(NC(=O)Nc3ccc(Cl)c(C(F)(F)F)c3)c(F)c2)cc[n+]1[O-]		Oatp1b2 knockout mice, plasma	oral, 10 mg/kg regorafenib	405 ± 20.6 ng/mL
